Measurements pooled from the literature.
Each numbered part is a random draw from the data of one study; scales do not carry over between parts.
Sequence of UniProt Q59H18 (whole entry, looked up): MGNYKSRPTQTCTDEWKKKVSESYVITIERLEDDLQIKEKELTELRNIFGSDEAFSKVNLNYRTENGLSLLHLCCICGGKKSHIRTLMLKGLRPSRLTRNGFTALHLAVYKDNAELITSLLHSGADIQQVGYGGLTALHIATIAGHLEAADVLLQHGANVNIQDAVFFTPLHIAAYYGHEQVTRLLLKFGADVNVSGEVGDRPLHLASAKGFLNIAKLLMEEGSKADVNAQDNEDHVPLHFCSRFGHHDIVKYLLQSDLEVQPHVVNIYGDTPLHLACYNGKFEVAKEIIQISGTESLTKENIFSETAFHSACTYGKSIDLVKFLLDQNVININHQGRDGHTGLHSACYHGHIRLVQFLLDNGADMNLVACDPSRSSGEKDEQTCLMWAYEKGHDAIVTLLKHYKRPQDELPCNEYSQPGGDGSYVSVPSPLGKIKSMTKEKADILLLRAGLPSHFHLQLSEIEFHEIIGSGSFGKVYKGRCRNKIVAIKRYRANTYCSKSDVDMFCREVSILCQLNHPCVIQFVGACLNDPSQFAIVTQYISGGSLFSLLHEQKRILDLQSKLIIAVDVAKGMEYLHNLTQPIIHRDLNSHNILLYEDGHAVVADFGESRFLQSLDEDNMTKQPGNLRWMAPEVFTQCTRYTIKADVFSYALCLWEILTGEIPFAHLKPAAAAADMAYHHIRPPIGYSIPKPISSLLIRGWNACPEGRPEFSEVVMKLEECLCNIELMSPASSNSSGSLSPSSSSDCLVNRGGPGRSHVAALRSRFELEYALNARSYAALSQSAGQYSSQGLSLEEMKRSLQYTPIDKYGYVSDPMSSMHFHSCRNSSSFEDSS
Sequence of UniProt O60331 (whole entry, looked up): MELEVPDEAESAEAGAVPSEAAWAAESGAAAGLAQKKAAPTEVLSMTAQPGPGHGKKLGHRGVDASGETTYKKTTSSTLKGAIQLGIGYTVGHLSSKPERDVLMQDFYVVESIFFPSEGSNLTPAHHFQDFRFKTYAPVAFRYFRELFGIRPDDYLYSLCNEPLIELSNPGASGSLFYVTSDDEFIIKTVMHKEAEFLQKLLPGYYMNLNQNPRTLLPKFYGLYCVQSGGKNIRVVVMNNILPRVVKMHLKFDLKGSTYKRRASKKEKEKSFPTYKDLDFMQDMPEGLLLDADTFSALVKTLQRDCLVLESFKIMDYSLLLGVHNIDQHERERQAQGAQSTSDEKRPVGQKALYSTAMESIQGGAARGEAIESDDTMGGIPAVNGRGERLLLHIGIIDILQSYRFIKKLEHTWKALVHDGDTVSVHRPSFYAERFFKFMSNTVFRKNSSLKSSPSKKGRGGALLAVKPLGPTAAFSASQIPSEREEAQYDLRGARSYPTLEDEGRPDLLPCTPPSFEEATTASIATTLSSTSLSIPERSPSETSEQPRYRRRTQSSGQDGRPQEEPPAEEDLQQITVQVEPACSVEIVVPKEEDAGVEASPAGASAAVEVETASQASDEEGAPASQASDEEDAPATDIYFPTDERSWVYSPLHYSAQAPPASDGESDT
Sequence of UniProt P29376 (whole entry, looked up): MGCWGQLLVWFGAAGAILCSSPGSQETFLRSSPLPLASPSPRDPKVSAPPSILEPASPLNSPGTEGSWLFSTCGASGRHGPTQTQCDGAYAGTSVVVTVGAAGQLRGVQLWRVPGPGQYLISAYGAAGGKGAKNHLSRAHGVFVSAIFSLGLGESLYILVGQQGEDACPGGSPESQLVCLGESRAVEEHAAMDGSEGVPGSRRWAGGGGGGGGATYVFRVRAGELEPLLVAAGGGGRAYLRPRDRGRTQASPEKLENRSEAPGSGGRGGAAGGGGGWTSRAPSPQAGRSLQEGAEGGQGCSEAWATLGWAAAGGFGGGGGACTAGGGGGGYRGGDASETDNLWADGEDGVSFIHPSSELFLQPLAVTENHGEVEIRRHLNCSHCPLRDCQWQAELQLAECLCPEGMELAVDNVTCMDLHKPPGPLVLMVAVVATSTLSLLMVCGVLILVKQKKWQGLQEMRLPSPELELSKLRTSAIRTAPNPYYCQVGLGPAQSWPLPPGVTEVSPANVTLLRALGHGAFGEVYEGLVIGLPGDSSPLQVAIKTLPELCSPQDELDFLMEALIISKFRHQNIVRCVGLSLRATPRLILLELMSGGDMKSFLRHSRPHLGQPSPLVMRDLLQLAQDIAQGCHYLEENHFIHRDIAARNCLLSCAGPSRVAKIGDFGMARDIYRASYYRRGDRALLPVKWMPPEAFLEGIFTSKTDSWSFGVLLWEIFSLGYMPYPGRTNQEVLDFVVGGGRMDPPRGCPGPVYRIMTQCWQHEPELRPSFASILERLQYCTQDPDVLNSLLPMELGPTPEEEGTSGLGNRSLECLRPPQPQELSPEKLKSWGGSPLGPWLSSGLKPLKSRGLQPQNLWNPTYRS
Sequence of UniProt Q9UQ88 (whole entry, looked up): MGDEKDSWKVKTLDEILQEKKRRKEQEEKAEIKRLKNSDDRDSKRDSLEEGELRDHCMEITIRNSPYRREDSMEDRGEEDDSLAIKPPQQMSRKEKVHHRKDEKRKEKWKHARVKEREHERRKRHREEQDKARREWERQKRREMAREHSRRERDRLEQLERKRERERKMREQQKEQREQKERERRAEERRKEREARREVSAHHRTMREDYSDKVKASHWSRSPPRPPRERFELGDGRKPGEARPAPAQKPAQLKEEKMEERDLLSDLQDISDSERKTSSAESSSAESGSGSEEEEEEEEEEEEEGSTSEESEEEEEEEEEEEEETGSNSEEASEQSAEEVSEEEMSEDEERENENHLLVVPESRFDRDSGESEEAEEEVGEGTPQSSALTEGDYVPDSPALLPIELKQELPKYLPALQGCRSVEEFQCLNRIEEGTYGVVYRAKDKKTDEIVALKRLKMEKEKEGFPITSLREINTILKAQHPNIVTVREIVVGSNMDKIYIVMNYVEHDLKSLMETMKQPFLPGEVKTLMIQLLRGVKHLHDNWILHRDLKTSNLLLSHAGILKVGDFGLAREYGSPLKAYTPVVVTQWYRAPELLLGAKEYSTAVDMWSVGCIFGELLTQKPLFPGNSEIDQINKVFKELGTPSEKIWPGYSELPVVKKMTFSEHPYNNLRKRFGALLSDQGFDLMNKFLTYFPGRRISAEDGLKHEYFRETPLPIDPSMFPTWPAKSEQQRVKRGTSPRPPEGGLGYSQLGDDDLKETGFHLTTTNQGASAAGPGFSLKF
Sequence of UniProt Q9P1W9 (whole entry, looked up): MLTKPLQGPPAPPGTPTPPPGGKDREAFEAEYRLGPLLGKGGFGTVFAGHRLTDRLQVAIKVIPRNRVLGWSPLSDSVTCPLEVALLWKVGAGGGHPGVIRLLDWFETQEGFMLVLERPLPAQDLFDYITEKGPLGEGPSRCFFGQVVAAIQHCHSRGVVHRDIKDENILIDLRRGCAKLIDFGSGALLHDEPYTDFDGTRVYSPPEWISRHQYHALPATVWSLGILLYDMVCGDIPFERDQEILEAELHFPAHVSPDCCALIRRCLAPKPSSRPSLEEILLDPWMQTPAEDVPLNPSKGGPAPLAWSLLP

Set 1
Target: Calcium/calmodulin-dependent protein kinase type II subunit alpha (CAMK2A, Homo sapiens, UniProt Q9UQM7)
Sequence of UniProt Q9UQM7 (whole entry, looked up): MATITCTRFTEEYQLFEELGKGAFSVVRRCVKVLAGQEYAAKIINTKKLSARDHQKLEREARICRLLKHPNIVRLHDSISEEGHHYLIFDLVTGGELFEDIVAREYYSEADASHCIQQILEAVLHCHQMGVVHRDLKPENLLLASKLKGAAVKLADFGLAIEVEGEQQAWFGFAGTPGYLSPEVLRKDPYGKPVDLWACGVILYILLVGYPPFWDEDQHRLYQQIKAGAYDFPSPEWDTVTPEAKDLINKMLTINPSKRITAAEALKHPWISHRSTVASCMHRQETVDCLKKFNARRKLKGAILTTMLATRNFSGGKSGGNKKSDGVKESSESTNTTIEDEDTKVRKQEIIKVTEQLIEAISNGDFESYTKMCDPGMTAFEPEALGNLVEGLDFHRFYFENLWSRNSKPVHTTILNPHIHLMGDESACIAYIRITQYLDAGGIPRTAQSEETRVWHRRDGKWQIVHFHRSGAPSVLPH
Observed: enzyme activity
Mode: inhibitor
Concentration: 10 µM
The inhibition of CC(=O)Oc1ccc(C2CC(=O)c3c(OC(C)=O)cc(OC(C)=O)cc3O2)cc1 (stereo not drawn) is reported as -26%.
O=C1c2ccccc2C(=O)c2c(O)c(O)cc(O)c21 has an inhibition of -15%.
For O=C(O)C/C=C(\CC(=O)O)C(=O)O, the inhibition was 3%.
The inhibition of COc1ccc(-c2coc3cc(O)ccc3c2=O)cc1O is reported as -8%.
The inhibition of CCCCC(=O)N(Cc1ccc(-c2ccccc2-c2nn[nH]n2)cc1)[C@H](C(=O)O)C(C)C is reported as 3%.
O=C1Cc2ccccc2N1 gave an inhibition of 0%.
With CC(C(=O)O)c1ccc(C(=O)c2ccccc2)s1 (stereo not drawn) the inhibition was 19%.
With C[C@H](CCC(=O)O)[C@H]1CC[C@H]2[C@@H]3[C@H](O)C[C@@H]4C[C@H](O)CC[C@]4(C)[C@H]3CC[C@]12C the inhibition was 0%.
For N[C@H]1[C@H](O[C@H]2[C@H](O)[C@@H](N)C(O)O[C@@H]2CO)O[C@H](CO)[C@@H](O)[C@@H]1O (stereo partly drawn), the inhibition was 14%.
For CC(C)(C)NCC(O)COc1cccc2c1CCC(=O)N2 (stereo not drawn), the inhibition was -5%.
With CCCCCCCCCCCCCCCCCCC(=O)O the inhibition was -12%.
The inhibition of c1ccc2[nH]ccc2c1 is reported as -64%.
For CN1C(=O)/C(=C2/C(=O)Nc3ccccc32)c2ccccc21, the inhibition was 3%.
CN1CCCC(n2nc(Cc3ccc(Cl)cc3)c3ccccc3c2=O)CC1 (stereo not drawn) gave an inhibition of -2%.
The inhibition of COc1cc2c(c(OC)c1OC)-c1c(cc(OC)c(OC)c1OC)C[C@H](C)[C@H](C)C2 is reported as 40%.
The inhibition of O=c1ccn([C@@H]2O[C@H](COP(=O)(O)OP(=O)(O)OP(=O)(O)OP(=O)(O)OC[C@H]3O[C@@H](n4ccc(=O)[nH]c4=O)[C@H](O)[C@@H]3O)[C@@H](O)[C@H]2O)c(=O)[nH]1 is reported as 1%.
For O=C(O)/C=C/c1ccc(O)c(O)c1, the inhibition was -1%.
C=CC(=C)CC/C=C(\C)CCC=C(C)C gave an inhibition of -25%.
CC1(C)CC[C@]2(C)CC[C@]3(C)C(=CC[C@@H]4[C@@]5(C)CC[C@H](O)C(C)(C)[C@@H]5CC[C@]43C)[C@@H]2C1 has an inhibition of 3%.

Set 2
Compound: C=CC(=O)N1CCC([C@@H]2CCNc3c(C(N)=O)c(-c4ccc(Oc5ccccc5)cc4)nn32)CC1
Concentration: 1 µM
The inhibition was 28% (Vascular endothelial growth factor receptor 1 (FLT1, Homo sapiens, UniProt P17948); cell-free assay).
For Uncharacterized serine/threonine-protein kinase SBK3 (SBK3, Homo sapiens, UniProt P0C264); enzyme activity, inhibitor: inhibition read 0%.
It gave 19% for inhibition (Peripheral plasma membrane protein CASK (CASK, Homo sapiens, UniProt O14936); cell-free assay).
It gave 0% for inhibition (Ephrin type-B receptor 1 (EPHB1, Homo sapiens, UniProt P54762); cell-free assay).
For Phosphatidylinositol 4-phosphate 5-kinase type-1 gamma (PIP5K1C, Homo sapiens, UniProt O60331); inhibitor: inhibition read 7%.
For Serine/threonine-protein kinase pim-2 (PIM2, Homo sapiens, UniProt Q9P1W9); enzyme activity, inhibitor: inhibition read 0%.
Ephrin type-A receptor 3 (EPHA3, Homo sapiens, UniProt P29320); cell-free assay — inhibition: 0%.
The inhibition was 45% (Phosphatidylinositol 4,5-bisphosphate 3-kinase catalytic subunit alpha isoform (PIK3CA, Homo sapiens, UniProt P42336, E542K); enzyme activity, inhibitor).

Set 3
Target: Lymphokine-activated killer T-cell-originated protein kinase (PBK, Homo sapiens, UniProt Q96KB5)
Observed: enzyme activity
Mode: inhibitor
Concentration: 0.5 µM
Relative to: control
Target sequence (Q96KB5 1-322): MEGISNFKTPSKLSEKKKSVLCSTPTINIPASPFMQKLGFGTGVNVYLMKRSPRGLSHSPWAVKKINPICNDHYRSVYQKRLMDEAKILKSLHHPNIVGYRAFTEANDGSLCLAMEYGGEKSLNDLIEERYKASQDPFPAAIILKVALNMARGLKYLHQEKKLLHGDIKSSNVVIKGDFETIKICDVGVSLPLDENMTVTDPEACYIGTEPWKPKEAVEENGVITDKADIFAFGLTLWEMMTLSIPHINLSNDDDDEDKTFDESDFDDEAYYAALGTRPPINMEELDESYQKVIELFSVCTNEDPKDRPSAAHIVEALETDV
O=Nc1c(-c2c(O)[nH]c3ccccc23)[nH]c2ccccc12 has a remaining activity of 89.5%.
With CC(C)N(CCC(=O)c1ccc2ccccc2c1)Cc1ccccc1 the remaining activity was 108%.
The remaining activity of Clc1ccc(Nc2nnc(Cc3ccncc3)c3ccccc23)cc1 is reported as 108%.
The remaining activity of O=C1c2ccccc2-c2nc3nnnn3nc21 is reported as 64.5%.
The remaining activity of C[C@@H](N)[C@H]1CC[C@H](C(=O)Nc2ccncc2)CC1 is reported as 56.7%.
c1cc(-c2cnn3cc(-c4ccc(OCCN5CCCCC5)cc4)cnc23)ccn1 gave a remaining activity of 79.7%.
With NC(=O)c1ccc(-c2nc(-c3ccc4c(c3)OCCO4)c(-c3ccccn3)[nH]2)cc1 the remaining activity was 105%.
For O=C(O)/C=C/c1cc(Br)c(Br)c(Br)c1Br, the remaining activity was 96.2%.
CNc1cc2c(Nc3cccc(Br)c3)ncnc2cn1 has a remaining activity of 102%.
The remaining activity of COc1cc2c(Nc3ccc(Br)cc3F)ncnc2cc1OCC1CCN(C)CC1 is reported as 98.9%.
For NC(=O)c1cccc(-c2cc(Nc3ccc(OC(F)(F)F)cc3)ncn2)c1, the remaining activity was 72.2%.
CCCCc1c(-c2ccc(O)cc2)[nH]c2nccnc12 gave a remaining activity of 75.6%.
For N#C/C(=C(/N)SC1C=CC=CC1)c1cccc(C(O)c2ccncc2)c1 (stereo not drawn), the remaining activity was 122%.
The remaining activity of CC(C)n1cnc2c(Nc3cccc(Cl)c3)nc(NCCO)nc21 is reported as 101%.
CCN(CC)CCCCN1c2ccccc2Oc2ccc(Cl)cc21 gave a remaining activity of 105%.
With O=C(c1ccccc1)c1ccc(N2CCOCC2)cc1O the remaining activity was 114%.
For CC(C)(C)c1nc2c3cc[nH]c(=O)c3c3cc(F)ccc3c2[nH]1, the remaining activity was 39.1%.
COc1cc2c(N3CCN(C(=O)Nc4ccc(OC(C)C)cc4)CC3)ncnc2cc1OCCCN1CCCCC1 gave a remaining activity of 98%.
FC(F)(F)c1ccc(/C=C/c2nc(COc3ccc(CCCCn4ccnn4)cc3)co2)cc1 has a remaining activity of 99.9%.
N#CC(c1ccnc(NCCc2cccnc2)n1)c1nc2ccccc2s1 (stereo not drawn) has a remaining activity of 99.7%.
O=c1c(-c2ccc(F)cc2)c(-c2ccncc2)[nH]n1-c1ccc(Cl)cc1 gave a remaining activity of 87.7%.
O=C1NC(=O)/C(=C/c2ccc3c(c2)OC(F)(F)O3)S1 has a remaining activity of 91.8%.
With Nc1nc(Nc2ccc(S(N)(=O)=O)cc2)nn1C(=S)Nc1c(F)cccc1F the remaining activity was 105%.

Set 4
Structure (SMILES): CCCOc1ccc([C@H]2[C@H](C(=O)O)[C@@H](c3ccc4c(c3)OCO4)CN2CC(=O)Nc2c(CC)cccc2CC)cc1
Concentration: 1 µM
The remaining binding was 100% (Leukocyte tyrosine kinase receptor (LTK, Homo sapiens, UniProt P29376); cell-free assay, competition with immobilised ligand).
The remaining binding was 100% (Ephrin type-A receptor 2 (EPHA2, Homo sapiens, UniProt P29317); cell-free assay, competition with immobilised ligand).
It gave 99% for remaining binding (Serine/threonine-protein kinase 4 (STK4, Homo sapiens, UniProt Q13043); cell-free assay, competition with immobilised ligand).
It gave 100% for remaining binding (Cyclin-dependent kinase 4, with cyclin D1 (CDK4, Homo sapiens, UniProt P11802); cell-free assay, competition with immobilised ligand).
The remaining binding was 93% (Cyclin-G-associated kinase (GAK, Homo sapiens, UniProt O14976); cell-free assay, competition with immobilised ligand).
For Cyclin-dependent kinase 11A (CDK11A, Homo sapiens, UniProt Q9UQ88); binding, competition with immobilised ligand: remaining binding read 98%.
It gave 80% for remaining binding (Receptor-type tyrosine-protein kinase FLT3, autoinhibited (FLT3, Homo sapiens, UniProt P36888); cell-free assay, competition with immobilised ligand).
For Dual specificity tyrosine-phosphorylation-regulated kinase 1A (DYRK1A, Homo sapiens, UniProt Q13627); cell-free assay, competition with immobilised ligand: remaining binding read 73%.
Citron Rho-interacting kinase (CIT, Homo sapiens, UniProt O14578); cell-free assay, competition with immobilised ligand — remaining binding: 83%.
The remaining binding was 96% (Serine/threonine-protein kinase 3 (STK3, Homo sapiens, UniProt Q13188); cell-free assay, competition with immobilised ligand).
For Non-receptor tyrosine-protein kinase TNK1 (TNK1, Homo sapiens, UniProt Q13470); cell-free assay, competition with immobilised ligand: remaining binding read 100%.
It gave 87% for remaining binding (Dual specificity protein kinase CLK1 (CLK1, Homo sapiens, UniProt P49759); cell-free assay, competition with immobilised ligand).
For TGF-beta receptor type-2 (TGFBR2, Homo sapiens, UniProt P37173); cell-free assay, competition with immobilised ligand: remaining binding read 95%.
It gave 100% for remaining binding (Serine/threonine-protein kinase TNNI3K (TNNI3K, Homo sapiens, UniProt Q59H18); cell-free assay, competition with immobilised ligand).
It gave 13% for remaining binding (Receptor-type tyrosine-protein kinase FLT3 (FLT3, Homo sapiens, UniProt P36888, F691L/ITD); cell-free assay, competition with immobilised ligand).
The remaining binding was 95% (AP2-associated protein kinase 1 (AAK1, Homo sapiens, UniProt Q2M2I8); binding).
